Published values from different studies.
Several values in a cell are separate wells, animals, samples, runs or records. Numbers after ± are the reported error.

The normalised growth of Cc1cc(Oc2nc(N3CC[C@@H](c4ccncc4)C3)ncc2F)[nH]n1 is reported as 101% and 98% and 104% (Mycobacterium tuberculosis; OD; H37Rv PurF CRISPRi knockdown; 6.1e-05 µM, with: anhydrotetracycline low).
Cc1cc(C(=O)Nc2nc3cccc(C)c3n2[C@H]2CCCCN(C(=O)/C=C/CN(C)C)C2)ccn1 gave a multinucleated cells of 8.62% (Trypanosoma brucei; propidium iodide flow cytometry; bloodstream form; concentration not given, 48 h).
O=C(c1ccc(-c2ccc3ncnc(Nc4ccc(OCc5cccc(F)c5)c(Cl)c4)c3c2)cc1)N1CCCCC1 gave an EC50 of 360 nM (Plasmodium falciparum; parasite growth, SYBR Green fluorescence; C235 (TM91C235), drug-resistant).
CC(C)CC(C(=O)N1CC2(CC1C#N)C(=O)Nc1ccccc12)N(C)C(=O)c1cc2c(F)cc(F)c(F)c2[nH]1 (stereo not shown) gave an inhibition of 81% (Human coronavirus 229E; cytopathic effect; MRC5; 5.6 nM).
The haematocrit of O=C1NC2(CC2)COc2ncc(F)cc2[C@H]2COCCN2c2ccn3ncc1c3n2 is reported as 39.8 ± 3.5% (Sprague-Dawley rats, female, blood; oral, 10 mg/kg/day, end of recovery, 4-week subacute toxicity).
CCOC(=O)C1(Cc2ccccc2)Oc2cc(F)ccc2N(Cc2ccccc2)C1=O (stereo not shown) has an inhibition of 0.05% (L02; cell growth or viability, CCK-8; 1.56 µM, 72 h).
COc1ccccc1-c1n[nH]c2nc(NC3CCN(C(=O)Cc4ccc(F)cc4F)CC3)ncc12 gave a relative abundance of 0.84 (bead binding, competition bead pull-down, measured: LINJ.05.0550; Leishmania donovani extract; 10 µM; relative to: vehicle).
With CC(C)(C)C(=O)OCOP(=O)(OCOC(=O)C(C)(C)C)C1CCCN(O)C1=O (stereo not shown) the TGI was 2730 nM (IGROV-1).
The cytokine level of CC(C)C[C@@H]1NC(=O)[C@@H](Cc2c[nH]c3ccccc23)NC(=O)[C@H](CCCNC(=N)N)NC(=O)[C@@H](CCC(=O)O)NC(=O)[C@H](CCC(N)=O)NC(=O)[C@@H](CCC(=O)O)NC(=O)[C@H](CCCNC(=N)N)NC(=O)[C@@H](Cc2c[nH]c3ccccc23)NC1=O is reported as 39 ± 25 pg/g tissue (measured: IL5; LDLr-/- mouse on Western diet, liver; dose not given, 4 weeks).
For COc1ccccc1-c1n[nH]c2nc(N[C@H]3CC[C@H](NS(=O)(=O)CC(C)C)CC3)ncc12, “relative captured amount” read 0.87 (LINJ.11.1000; bead competition pull-down; Leishmania extract; 5 µM; relative to: vehicle).

Some of these lines once more:
The cytokine level of CC(C)C[C@@H]1NC(=O)[C@@H](Cc2c[nH]c3ccccc23)NC(=O)[C@H](CCCNC(=N)N)NC(=O)[C@@H](CCC(=O)O)NC(=O)[C@H](CCC(N)=O)NC(=O)[C@@H](CCC(=O)O)NC(=O)[C@H](CCCNC(=N)N)NC(=O)[C@@H](Cc2c[nH]c3ccccc23)NC1=O is reported as 39 ± 25 pg/g tissue (measured: IL5; LDLr-/- mouse on Western diet, liver; dose not given, 4 weeks).
